Measured values of several laboratories.
Target: Dual serine/threonine and tyrosine protein kinase (DSTYK, Homo sapiens, UniProt Q6XUX3)

SMILES	assay	conditions	how to read	quantity	result
Nc1ncc(-c2cc(-c3cnn(CC(F)(F)F)c3)ncc2F)nc1C(=O)NC1CNCC(F)C1 (stereo not shown)	enzyme activity	1 µM	relative to: DMSO control	remaining activity	95%
C=CC(=O)N1CCc2ccc(-n3c(=O)ccc4cnc5ccc(-c6cnn(C)c6)cc5c43)cc21	KINOMEscan	1 µM	relative to: DMSO control	remaining binding	100%
NC(=O)[C@@H](O)C[C@H]1CCc2sc3ncnc(O[C@H]4CC[C@H](N5CCOCC5)CC4)c3c21	enzyme activity, inhibitor	10 µM	–	inhibition	1%
CC(C)=CC1OC(C)(C)C2C=C3C(=O)C(Cl)=CC(O)C3C3C(O)C4OC4C(=O)C132 (stereo not shown)	cell-free assay, competition with immobilised ligand	10 µM	–	remaining binding	56%
COc1cc(Nc2nccc(-c3cnn4nc(OC)ccc34)n2)cc(C(F)(F)F)c1	binding, competition with immobilised ligand	1 µM	–	remaining binding	92%
Nc1ncc2c(n1)-c1c([nH]c3ccc(C4=CCOCC4)cc13)CCC2	binding, competition with immobilised ligand	1 µM	–	remaining binding	6.9%
CCn1cc(C(=O)O)c(=O)c2c(N)c(F)c(NC3CCCCC3)cc21	kinase activity	0.1 µM, added: ATP at Km	–	inhibition	7.6%
COc1cc(Nc2nc(C)cc(-c3cnn4nc(OC)ccc34)n2)cc(C(F)(F)F)c1	binding, competition with immobilised ligand	1 µM	–	remaining binding	79%
CNC(=O)C1CCN(c2cc(C)c(F)cc2NC(=O)c2ccc(-c3cc(O)ccc3C)c(C)c2)CC1	binding, competition with immobilised ligand	1 µM	–	remaining binding	69%
COc1c(Cl)cccc1Nc1c(-c2ccncc2C#C[C@@]2(C)CCCN2C(=O)/C=C/CN(C)C)[nH]c2c1C(=O)NCC2	binding, competition with immobilised ligand	3 µM	–	remaining binding	95%
Cc1cnc2nc1Nc1cccc(c1)COC/C=C/COCc1cc(ccc1OCCN1CCOCC1)N2	binding, competition with immobilised ligand	0.1 µM	–	remaining binding	93%
Cc1ccc(-c2c(/C=C(\C#N)C(=O)NC(C)C)n(CCCO)c3ncnc(N)c23)cc1	enzyme activity, inhibitor	1 µM	–	remaining activity	87%
NC(=O)C[C@H]1CCc2sc3ncnc(O[C@H]4CC[C@H](N5CCOCC5)CC4)c3c21	enzyme activity, inhibitor	10 µM	–	inhibition	3%
CNC1C[S+]2CC[S+]3CC[S+](C1)[Ru-4]321([N]=C=S)[n]2c3ccc(OC)cc3c3c4c(c5cc(F)c[n+]1c5c32)C(=O)NC4=O (stereo not shown)	KinomeScan	0.1 µM	relative to: untreated	remaining binding	74%
C=CC(=O)N1CCCC(n2c(=O)c3ncccc3n(Cc3ccc(Oc4ccccc4)cc3)c2=O)C1 (stereo not shown)	cell-free assay, competition with immobilised ligand	1 µM	–	remaining binding	74%
CCN1CCN(Cc2ccc(C(=O)Nc3ccc(C)c(NCc4cnc5[nH]ccc5c4OC)c3)cc2C(F)(F)F)CC1	binding, competition with immobilised ligand	1 µM	–	remaining binding	100%

For quick reference, copied from above:
SMILES	assay	conditions	how to read	quantity	result
CCN1CCN(Cc2ccc(C(=O)Nc3ccc(C)c(NCc4cnc5[nH]ccc5c4OC)c3)cc2C(F)(F)F)CC1	binding, competition with immobilised ligand	1 µM	–	remaining binding	100%
